Published values of several laboratories.
Each line is one published result; not all experiments were run side by side. Numbers after ± are the reported error. Where no end group is shown, it is not given here. [ ]: non-standard residue; d: D form.
T1: NR1I2/RXRA (Homo sapiens); chain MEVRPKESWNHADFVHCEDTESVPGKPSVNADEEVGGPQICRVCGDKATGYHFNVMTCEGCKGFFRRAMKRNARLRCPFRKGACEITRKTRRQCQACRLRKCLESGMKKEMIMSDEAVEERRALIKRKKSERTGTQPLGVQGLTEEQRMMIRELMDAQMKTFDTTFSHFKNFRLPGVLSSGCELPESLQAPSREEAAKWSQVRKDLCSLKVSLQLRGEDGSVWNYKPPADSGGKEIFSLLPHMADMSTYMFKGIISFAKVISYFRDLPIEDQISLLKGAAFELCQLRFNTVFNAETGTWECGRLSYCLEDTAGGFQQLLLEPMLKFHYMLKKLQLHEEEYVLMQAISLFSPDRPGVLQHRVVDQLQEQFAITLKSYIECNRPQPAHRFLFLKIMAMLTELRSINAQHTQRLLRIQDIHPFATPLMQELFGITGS; chain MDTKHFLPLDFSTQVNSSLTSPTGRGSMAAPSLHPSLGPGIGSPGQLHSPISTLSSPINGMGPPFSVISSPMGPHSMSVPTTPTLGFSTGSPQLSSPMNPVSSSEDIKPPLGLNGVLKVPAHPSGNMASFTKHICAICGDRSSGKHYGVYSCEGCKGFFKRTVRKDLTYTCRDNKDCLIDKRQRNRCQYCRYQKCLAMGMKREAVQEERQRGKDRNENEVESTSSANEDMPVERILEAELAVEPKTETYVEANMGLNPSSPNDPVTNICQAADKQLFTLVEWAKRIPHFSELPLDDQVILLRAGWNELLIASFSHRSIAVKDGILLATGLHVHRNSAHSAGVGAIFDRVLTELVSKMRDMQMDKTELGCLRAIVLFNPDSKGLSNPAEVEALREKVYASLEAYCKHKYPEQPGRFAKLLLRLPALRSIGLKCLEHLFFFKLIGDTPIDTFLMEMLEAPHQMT
B1: CYBA (Homo sapiens, UniProt P13498); chain MGQIEWAMWANEQALASGLILITGGIVATAGRFTQWYFGAYSIVAGVFVCLLEYPRGKRKKGSTMERWGQKYMTAVVKLFGPFTRNYYVRAVLHLLLSVPAGFLLATILGTACLAIASGIYLLAAVRGEQWTPIEPKPRERPQIGGTIKQPPSNPPPRPPAEARKKPSEEEAAVAAGGPPGGPQVNPIPVTDEVV
B2: UGT1A9 (Homo sapiens, UniProt O60656); chain GKLLVVPMDGSHWFTMRSVVEKLILRGHEVVVVMPEVSWQLGRSLNCTVKTYSTSYTLEDLDREFKAFAHAQWKAQVRSIYSLLMGSYNDIFDLFFSNCRSLFKDKKLVEYLKESSFDAVFLDPFDNCGLIVAKYFSLPSVVFARGILCHYLEEGAQCPAPLSYVPRILLGFSDAMTFKERVRNHIMHLEEHLLCHRFFKNALEIASEILQTPVTEYDLYSHTSIWLLRTDFVLDYPKPVMPNMIFIGGINCHQGKPLPMEFEAYINASGEHGIVVFSLGSMVSEIPEKKAMAIADALGKIPQTVLWRYTGTRPSNLANNTILVKWLPQNDLLGHPMTRAFITHAGSHGVYESICNGVPMVMMPLFGDQMDNAKRMETKGAGVTLNVLEMTSEDLENALKAVINDKSYKENIMRLSSLHKDRPVEPLDLAVFWVEFVMRHKGAPHLRPAAHDLTWYQYHSLDVIGFLLAVVLTVAFITFKCCAYGYRKCLGKKGRVKKAHKSKTH
B3: Scn2a 1080-1203 (UniProt P04775); CK2-phosphorylated; sequence looked up; chain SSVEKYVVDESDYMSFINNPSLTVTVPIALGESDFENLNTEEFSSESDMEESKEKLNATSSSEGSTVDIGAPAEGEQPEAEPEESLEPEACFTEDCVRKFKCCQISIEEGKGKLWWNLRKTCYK
UniProt P30411, sequence (whole entry, looked up): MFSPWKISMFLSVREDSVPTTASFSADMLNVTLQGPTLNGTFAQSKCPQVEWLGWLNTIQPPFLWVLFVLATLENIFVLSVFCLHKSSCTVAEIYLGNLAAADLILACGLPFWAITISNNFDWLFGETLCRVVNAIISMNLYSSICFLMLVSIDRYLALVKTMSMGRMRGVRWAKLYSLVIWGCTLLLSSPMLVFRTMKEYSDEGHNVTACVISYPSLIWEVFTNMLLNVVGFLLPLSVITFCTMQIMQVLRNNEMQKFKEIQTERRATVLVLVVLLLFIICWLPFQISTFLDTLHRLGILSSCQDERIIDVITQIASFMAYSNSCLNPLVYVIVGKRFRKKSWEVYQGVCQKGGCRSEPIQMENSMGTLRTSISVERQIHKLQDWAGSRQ
UniProt P01042, sequence (whole entry, looked up): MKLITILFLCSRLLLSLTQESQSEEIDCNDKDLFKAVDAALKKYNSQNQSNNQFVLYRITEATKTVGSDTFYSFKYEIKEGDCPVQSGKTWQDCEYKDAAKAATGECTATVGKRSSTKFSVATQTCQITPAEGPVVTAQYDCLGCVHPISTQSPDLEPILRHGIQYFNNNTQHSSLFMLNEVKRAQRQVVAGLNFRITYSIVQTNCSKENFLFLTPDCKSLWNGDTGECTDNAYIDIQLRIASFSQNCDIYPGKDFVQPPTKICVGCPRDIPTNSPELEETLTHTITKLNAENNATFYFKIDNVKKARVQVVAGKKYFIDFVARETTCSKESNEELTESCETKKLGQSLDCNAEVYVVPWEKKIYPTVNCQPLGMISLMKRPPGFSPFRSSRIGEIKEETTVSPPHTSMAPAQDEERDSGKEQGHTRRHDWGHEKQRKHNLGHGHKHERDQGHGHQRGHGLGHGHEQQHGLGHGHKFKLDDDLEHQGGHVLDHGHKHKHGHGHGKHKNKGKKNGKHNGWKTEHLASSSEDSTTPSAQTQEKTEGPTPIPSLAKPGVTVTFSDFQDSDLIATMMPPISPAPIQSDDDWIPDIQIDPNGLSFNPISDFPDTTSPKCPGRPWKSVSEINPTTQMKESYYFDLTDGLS
UniProt P70188, sequence (whole entry, looked up): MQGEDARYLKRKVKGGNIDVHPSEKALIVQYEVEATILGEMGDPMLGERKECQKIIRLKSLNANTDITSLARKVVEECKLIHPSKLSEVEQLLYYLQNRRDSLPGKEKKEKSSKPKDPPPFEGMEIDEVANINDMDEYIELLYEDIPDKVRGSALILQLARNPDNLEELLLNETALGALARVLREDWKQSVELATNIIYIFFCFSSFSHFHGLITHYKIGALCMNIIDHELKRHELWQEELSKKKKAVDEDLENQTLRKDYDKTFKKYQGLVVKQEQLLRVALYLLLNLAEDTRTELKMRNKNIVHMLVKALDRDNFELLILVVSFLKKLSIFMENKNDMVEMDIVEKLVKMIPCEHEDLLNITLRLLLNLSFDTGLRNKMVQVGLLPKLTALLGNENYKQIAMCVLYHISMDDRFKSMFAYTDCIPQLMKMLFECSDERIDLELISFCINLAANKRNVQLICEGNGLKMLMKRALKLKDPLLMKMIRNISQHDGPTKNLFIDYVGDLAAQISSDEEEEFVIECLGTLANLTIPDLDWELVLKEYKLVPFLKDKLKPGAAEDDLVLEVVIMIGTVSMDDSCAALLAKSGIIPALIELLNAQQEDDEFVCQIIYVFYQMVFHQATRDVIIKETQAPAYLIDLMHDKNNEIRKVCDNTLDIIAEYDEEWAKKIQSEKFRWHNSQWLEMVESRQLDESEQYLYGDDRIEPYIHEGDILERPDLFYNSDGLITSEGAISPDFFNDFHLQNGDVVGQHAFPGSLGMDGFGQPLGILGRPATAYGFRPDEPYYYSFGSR
UniProt P00167, sequence (whole entry, unmodified, looked up): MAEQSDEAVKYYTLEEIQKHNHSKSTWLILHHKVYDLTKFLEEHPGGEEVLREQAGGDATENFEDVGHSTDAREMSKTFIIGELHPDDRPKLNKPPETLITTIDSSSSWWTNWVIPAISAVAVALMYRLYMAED
UniProt Q61093, sequence (whole entry, looked up): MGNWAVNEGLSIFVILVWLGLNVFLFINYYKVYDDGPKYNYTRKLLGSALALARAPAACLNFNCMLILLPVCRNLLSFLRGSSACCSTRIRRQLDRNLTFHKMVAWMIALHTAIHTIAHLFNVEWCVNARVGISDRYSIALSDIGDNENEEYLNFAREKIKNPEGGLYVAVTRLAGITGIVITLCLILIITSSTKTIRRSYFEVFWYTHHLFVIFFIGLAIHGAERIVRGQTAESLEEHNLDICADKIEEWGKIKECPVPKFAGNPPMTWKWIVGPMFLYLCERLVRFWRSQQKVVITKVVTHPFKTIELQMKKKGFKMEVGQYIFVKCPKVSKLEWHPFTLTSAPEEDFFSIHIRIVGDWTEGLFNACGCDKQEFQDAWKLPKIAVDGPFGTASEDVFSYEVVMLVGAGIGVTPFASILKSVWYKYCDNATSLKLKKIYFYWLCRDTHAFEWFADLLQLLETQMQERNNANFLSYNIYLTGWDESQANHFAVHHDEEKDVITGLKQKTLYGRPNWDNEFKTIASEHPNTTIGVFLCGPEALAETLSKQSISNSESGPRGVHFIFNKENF
UniProt P01023, sequence (whole entry, looked up): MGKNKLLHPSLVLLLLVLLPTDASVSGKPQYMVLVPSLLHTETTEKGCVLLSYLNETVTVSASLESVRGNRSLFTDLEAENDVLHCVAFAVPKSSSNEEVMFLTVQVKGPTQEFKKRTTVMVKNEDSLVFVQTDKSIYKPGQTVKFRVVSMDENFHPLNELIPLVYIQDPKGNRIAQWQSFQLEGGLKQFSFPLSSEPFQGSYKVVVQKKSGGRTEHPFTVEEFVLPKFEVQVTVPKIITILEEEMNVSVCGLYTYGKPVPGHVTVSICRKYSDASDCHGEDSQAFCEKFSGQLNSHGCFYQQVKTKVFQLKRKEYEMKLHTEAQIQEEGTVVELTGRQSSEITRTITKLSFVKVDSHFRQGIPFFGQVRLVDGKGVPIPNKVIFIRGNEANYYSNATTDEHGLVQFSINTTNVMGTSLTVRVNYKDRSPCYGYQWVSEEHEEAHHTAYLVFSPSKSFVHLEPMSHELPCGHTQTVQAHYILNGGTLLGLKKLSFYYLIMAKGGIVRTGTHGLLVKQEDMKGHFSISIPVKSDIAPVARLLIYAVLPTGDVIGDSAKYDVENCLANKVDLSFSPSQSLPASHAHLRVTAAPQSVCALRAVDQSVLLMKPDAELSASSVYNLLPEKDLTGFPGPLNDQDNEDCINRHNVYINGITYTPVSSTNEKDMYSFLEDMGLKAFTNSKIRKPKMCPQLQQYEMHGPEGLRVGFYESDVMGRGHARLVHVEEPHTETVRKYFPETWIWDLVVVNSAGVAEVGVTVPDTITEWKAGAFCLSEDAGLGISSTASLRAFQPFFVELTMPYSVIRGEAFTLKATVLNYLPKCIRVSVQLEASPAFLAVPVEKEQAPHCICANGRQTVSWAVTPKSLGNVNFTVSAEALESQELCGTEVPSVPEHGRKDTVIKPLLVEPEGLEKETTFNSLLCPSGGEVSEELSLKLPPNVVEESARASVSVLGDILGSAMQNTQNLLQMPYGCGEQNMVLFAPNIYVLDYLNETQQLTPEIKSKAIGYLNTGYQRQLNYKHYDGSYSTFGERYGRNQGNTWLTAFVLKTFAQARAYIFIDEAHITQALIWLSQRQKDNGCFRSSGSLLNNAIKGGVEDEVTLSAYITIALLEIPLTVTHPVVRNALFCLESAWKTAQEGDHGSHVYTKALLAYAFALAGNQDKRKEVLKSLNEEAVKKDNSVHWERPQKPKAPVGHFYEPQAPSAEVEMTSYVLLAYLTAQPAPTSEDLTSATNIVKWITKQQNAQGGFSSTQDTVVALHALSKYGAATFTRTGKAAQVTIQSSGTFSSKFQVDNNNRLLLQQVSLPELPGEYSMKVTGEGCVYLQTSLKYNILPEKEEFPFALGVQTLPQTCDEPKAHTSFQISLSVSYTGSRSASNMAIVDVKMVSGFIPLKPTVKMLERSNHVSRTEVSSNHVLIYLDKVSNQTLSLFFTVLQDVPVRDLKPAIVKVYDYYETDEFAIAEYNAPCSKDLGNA
UniProt P08684, sequence (whole entry, unmodified, looked up): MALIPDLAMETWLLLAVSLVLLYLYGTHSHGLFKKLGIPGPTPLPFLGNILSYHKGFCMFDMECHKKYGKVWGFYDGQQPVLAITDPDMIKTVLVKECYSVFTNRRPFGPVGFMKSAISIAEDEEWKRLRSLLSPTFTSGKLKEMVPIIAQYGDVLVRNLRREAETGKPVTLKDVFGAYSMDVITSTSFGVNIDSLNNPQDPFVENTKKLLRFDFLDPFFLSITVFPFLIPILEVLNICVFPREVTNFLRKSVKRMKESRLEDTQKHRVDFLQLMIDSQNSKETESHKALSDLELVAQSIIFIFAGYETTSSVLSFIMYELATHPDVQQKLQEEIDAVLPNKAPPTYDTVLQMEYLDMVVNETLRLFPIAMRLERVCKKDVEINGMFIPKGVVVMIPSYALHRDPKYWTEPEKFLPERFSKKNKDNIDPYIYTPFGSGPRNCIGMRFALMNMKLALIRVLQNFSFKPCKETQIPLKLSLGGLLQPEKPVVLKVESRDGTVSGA

B1 (CYBA)  increase in protein (Cybb (Mus musculus, UniProt Q61093); Western blot; BMDM; higher = more protein): 39%
GAATGAACTTGCTGACCCTCT (dsDNA)  Ki (T1, NR1I2/RXRA (Homo sapiens); fluorescence anisotropy competition; double-stranded DNA, one strand shown; with: DR3 FAM): 95.6 ± 5.1 nM
VV[dA]A (D-Ala3)  cell viability (PC-12; protection from Aβ1–42 toxicity, MTT; concentration not given, 6 h, Aβ to peptide ratio 1:1, with: Aβ1–42 2 µM; reference: untreated cells): 70%
Sptan1 (Mus musculus)  β-galactosidase activity (Kifap3 209-384 (Mus musculus, UniProt P70188); two-hybrid; higher = stronger interaction): 234 U
bradykinin mature (UniProt P01042)  velocity increase (BDKRB2 (Homo sapiens, UniProt P30411); time-lapse; D54-MG-GFP; 5 h; reference: control, higher = faster): 29.5%
CYB5A holo (Homo sapiens, UniProt P00167)  catalytic efficiency ratio (CYP3A4 N-terminally truncated K96A (Homo sapiens, UniProt P08684); testosterone 6β-hydroxylation; with: CPR; reference: without b5, higher = greater b5 stimulation): 1.3
A2M methylamine-activated (Homo sapiens, UniProt P01023)  mRNA level (Lrp1 (Rattus norvegicus, UniProt G3V928); MCP-1 mRNA, qPCR; rat Schwann cells; 50 nM, 6 hr; higher = more mRNA): > 10 fold
Insulin human  brain concentration (rat, substantia nigra/VTA; intranasal, 20 µg per nostril, 120 min): 40.4 ± 12.2 pg/mg tissue
EPB41 fragment (Homo sapiens)  molecule per partner (SLC9A1 residues 506-575 (Rattus norvegicus); resonant mirror): 1
cyp102A1 flavin reductase domain (Bacillus megaterium)  slow phase rate constant (CYP3A4 del3-12 (Homo sapiens, UniProt P08684); BMR-dependent reduction; proteoliposomes; no substrate): 0.0024 s⁻¹
TCAGCTGAATGAACTTGCTGAC (dsDNA)  Ki (T1, NR1I2/RXRA (Homo sapiens); fluorescence anisotropy competition; double-stranded DNA, one strand shown; with: DR3 FAM): 102 ± 5.2 nM
SHH fragment I111E/N115K (Homo sapiens)  Hh reporter activity lost (PTCH1 fragment del619-720 (Homo sapiens); Hh reporter; Shh-Light II; reference: wild-type Shh-N, higher = more loss): > 70%
B2 (UGT1A9)  Vmax/Km (CCCCOC(=O)c1ccc(O)cc1; steady-state kinetics; pH 7.4, 37 °C): 32 µL/min/mg
B3 (Scn2a 1080-1203)  koff (ANK2 1-957 (Homo sapiens, UniProt Q01484-2); SPR; pH 7.4, 25 °C, NaCl 150 mM): 0.003 s⁻¹
APP Aβ1-40 A2V (Homo sapiens)  aggregation time constant (APP Aβ1-40 (Homo sapiens); laser light scattering; equimolar mixture): 8.3 h
V[Aib]IA (Aib2; Aib = CC(C)(N)C(=O)O)  cell viability (PC-12; protection from Aβ1–42 toxicity, MTT; concentration not given, 6 h, Aβ to peptide ratio 1:5, with: Aβ1–42 2 µM; reference: untreated cells): 76.6%
ARTKETARKS (Histone H3.1 2-11 Q5E (Homo sapiens, UniProt P68431); sequence looked up)  Ki (KDM5A 287-347 (Homo sapiens, UniProt P29375); competition with labeled peptide, fluorescence polarisation; peptide; with: H3 peptide): 2530 nM
PAM18 K144R (Saccharomyces cerevisiae)  fold stimulation of ATPase (SSC1 V459F (Saccharomyces cerevisiae); ATPase activity, activator; single turnover; reference: basal rate, higher = more stimulation): 9.3 fold
